Measurements collected from several papers.
Parts stem from different laboratories: compare values within a part only.

Set 1 — method: aptamer microarray, sandwich; form: DNA with 2'F-ANA; matrix: in vitro; tested at: 200 nM; with: Cy3 exosite-II aptamer, 400 nM; direction: higher = stronger binding; endpoint: mean fluorescence intensity; sequence: GGTTGGTGTGGTTGG
Target: Prothrombin, mature alpha-thrombin (F2, Homo sapiens, UniProt P00734)
Setting: whole 15-mer aptamer, many near background
2'F-ANA at 3 4 8 9 10 11 15: 259 a.u.
2'F-ANA at 3 5 6 7 10 11 12 14: 47.9 a.u.
2'F-ANA at 1 6 7 8 10 11 13 14 15: 53.7 a.u.
2'F-ANA at 1 2 8 9 10 11 12 15: 64.7 a.u.
2'F-ANA at 2 3 4 5 8 9 10 15: 81.3 a.u.
2'F-ANA at 3 4 5 6 7 10 12 14 15: 48 a.u.
2'F-ANA at 2 5 10 11 13 15: 107 a.u.
2'F-ANA at 1 4 5 8 9 10 11 13: 68.3 a.u.
2'F-ANA at 6 9 11 12 13 14 15: 168 a.u.
2'F-ANA at 1 5 6 8 9 14 15: 49.4 a.u.
2'F-ANA at 3 6 7 8 9 11 15: 705 a.u.
2'F-ANA at 1 3 6 7 8 9 11 13 15: 212 a.u.
2'F-ANA at 3 4 5 9 11 12 13: 107 a.u.
2'F-ANA at 1 2 3 4 5 6 9 10 11: 67.2 a.u.
2'F-ANA at 2 3 4 5 6 7 10 12 13: 52.7 a.u.
2'F-ANA at 3 4 9 10 11: 246 a.u.
2'F-ANA at 2 4 5 7 8: 130 a.u.
2'F-ANA at 1 3 4 5 11 12 14 15: 49.7 a.u.
2'F-ANA at 1 2 4 5 11 12 13 15: 69.3 a.u.
2'F-ANA at 2 3 4 5 6 8 12 15: 217 a.u.
2'F-ANA at 1 2 4 5 6 7 9 11 12 13 14 15: 51.5 a.u.
2'F-ANA at 1 4 7 8 9 10 11 14 15: 49.9 a.u.

Set 2 — method: universal PBM; form: double-stranded DNA, one strand shown; matrix: in vitro; tested at: not given; direction: higher = stronger binding; endpoint: E-score
Target: Sal-like protein 4, full length isoform B (SALL4, Homo sapiens, UniProt Q9UJQ4-2, residues 1-616)
Setting: 8-mer, flanks averaged, mean of replicates
AATATTGT: 0.418
CTGAGTAC: -0.168
CAATGCTA: 0.172
GGCTCAGA: -0.166
CCATCGCA: -0.0348
AACACCCG: -0.203
ACACAATA: 0.271
GGCTGTCA: -0.182
CTGAATAC: 0.106
GCGGGTAC: -0.149
AGTAGGAC: -0.0999
ACTGGTCC: -0.263
GGTGCCAC: -0.299
CATGGTGG: -0.272
GGCCTGCA: -0.367
ACGTCCAT: 0.0529
GACTTATC: -0.0682

Set 3 — method: RNA Bind-n-Seq; form: RNA; matrix: in vitro; tested at: 1 µM; setting: whole 134-nt RNA, ends assumed; with: 150 mM KCl; baseline: input library; direction: higher = stronger binding; endpoint: log2 enrichment
Target: Ras GTPase-activating protein-binding protein 1, C-terminal RGG region (G3BP1, Homo sapiens, UniProt Q13283)
Sequence of UniProt Q13283 (whole entry, looked up): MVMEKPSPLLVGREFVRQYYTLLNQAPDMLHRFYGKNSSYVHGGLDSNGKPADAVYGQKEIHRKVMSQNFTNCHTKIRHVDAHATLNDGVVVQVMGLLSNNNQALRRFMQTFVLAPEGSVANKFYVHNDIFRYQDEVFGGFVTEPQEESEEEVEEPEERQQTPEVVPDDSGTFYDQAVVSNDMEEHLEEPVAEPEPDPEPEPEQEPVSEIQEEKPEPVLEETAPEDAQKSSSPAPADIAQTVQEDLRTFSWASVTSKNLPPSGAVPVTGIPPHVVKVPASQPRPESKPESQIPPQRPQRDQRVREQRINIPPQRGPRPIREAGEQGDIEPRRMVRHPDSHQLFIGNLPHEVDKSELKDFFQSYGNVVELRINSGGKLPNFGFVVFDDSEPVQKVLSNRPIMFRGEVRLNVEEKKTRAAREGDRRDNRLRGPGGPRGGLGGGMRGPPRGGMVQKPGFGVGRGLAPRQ
All sequences stand within: GGGAGUUCUACAGUCCGACGAUC … UGGAAUUCUCGGGUGUCAAGG
CUCAAGUCCUGUGCUACACAUCGUAUGUACCGAAUCGGGGAGGGGAGGGGAGGGAAAGUAUUAUGUUACGCCGUUCGGAUCUGCACUUCC: 2.7
UCCCAAUGCUCGGAGGAAGCCCAAGGGCAGCCCUCGUGUACCUGAUGCCAAGAAGCCUAAACCCAAGAAAGUAGCUCCCCUGAAAAUCAA: -0.441
UGGCAGCGGCCAUGGACCGCUUCGUUUGGACCAGCGGCCUCCUGGAGAUCAACGAGACCCUGGUGAUCCAGCAGCGCGGGGUGCGAAUCU: -1.24
CCUGUGCUACACAUCGUAUGUACCGAAUCGGGGUUUUUUUGGGGUUUUUGGGGUUUGGGGAAAGUAUUAUGUUACGCCGUUCGGAUCUGC: 0.0531
CUCAAGUCCUGUGCUACACAUCGUAUGUACCGAAUCGGGGUGGGGUGGGUGGGAAAGUAUUAUGUUACGCCGUUCGGAUCUGCACUUCCA: 1.58
UCCUGUGCUACACAUCGUAUGUACCGAAUCGGGUUUUUUUGGGUUUGGGAAAAAAAGGGAAAGUAUUAUGUUACGCCGUUCGGAUCUGCA: -0.801
CUCAAGUCCUGUGCUACACAUCGUAUGUACCGAAUCGGUUGGGUUGGGGUUGGAAAGUAUUAUGUUACGCCGUUCGGAUCUGCACUUCCA: -0.599
AGUCCUGUGCUACACAUCGUAUGUACCGAAUCAAACCCAAACCCCCCCAAAUUUAAAAAAGUAUUAUGUUACGCCGUUCGGAUCUGCACU: -1.01
UGGCCCUGGUGGCAUGCGGGGAGGAAGAGGUGGCCUCAUGGAUCGUGGUGGUCCCGGUGGAAUGUUCAGAGGUGGCCGUGGUGGAGAGAG: 3.77

Set 4 — method: protein binding microarray; form: double-stranded DNA, one strand shown; matrix: in vitro; tested at: not given; baseline: not given; direction: higher = stronger binding; endpoint: E-score
Target: Histone acetyltransferase KAT6A, both winged helices, GST fusion (KAT6A, Homo sapiens, UniProt Q92794, residues 1-181)
Setting: 8-mer, flanks averaged, mean of 2 arrays, mostly near background
Construct (chain): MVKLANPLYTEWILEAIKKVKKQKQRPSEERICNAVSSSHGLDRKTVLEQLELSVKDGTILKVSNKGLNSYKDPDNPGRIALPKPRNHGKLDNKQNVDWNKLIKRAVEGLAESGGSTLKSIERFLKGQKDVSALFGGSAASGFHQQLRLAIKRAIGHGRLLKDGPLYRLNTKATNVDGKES
CCAAAATC: -0.0991
GGTGACCA: -0.128
CGTATATC: 0.0912
CGTAGGCC: 0.0323
CGTGTGAG: -0.0129
ATCCGGGA: -0.0607
ACGACGCT: 0.0605
ACGAGGAG: -0.263
AATGTTCG: 0.0605
GTTTCCAA: -0.149
AGACAGAG: -0.15
AAGCTAAG: -0.164
ATGGCAGC: -0.0132
CCGCATTA: 0.16
CCACACCG: 0.0655
CCTACAAG: -0.183
GGGTAAAA: -0.0285
ATCGGAGC: 0.0301
AGGTGGTC: -0.165
CTCTCGGC: 0.0998
ACTAAGAG: -0.118

Set 5 — method: protein-binding microarray; form: double-stranded DNA, one strand shown; matrix: in vitro; tested at: 2200 nM top; setting: 60-bp whole probe; with: salmon DNA 0.4 mg/ml; baseline: random background probes; direction: higher = stronger binding; endpoint: fitted relative affinity; all sequences stand within: GCCTAGCAC … GTCTTGATTCGCTTGACGCTGCTG
Target: Interferon regulatory factor 7, full length, phosphomimetic (IRF7, Homo sapiens, UniProt Q92985, residues 1-503, S471D/S472D/S475D/S476D/S477D/S483D/S484D/S487D)
Target sequence (chain): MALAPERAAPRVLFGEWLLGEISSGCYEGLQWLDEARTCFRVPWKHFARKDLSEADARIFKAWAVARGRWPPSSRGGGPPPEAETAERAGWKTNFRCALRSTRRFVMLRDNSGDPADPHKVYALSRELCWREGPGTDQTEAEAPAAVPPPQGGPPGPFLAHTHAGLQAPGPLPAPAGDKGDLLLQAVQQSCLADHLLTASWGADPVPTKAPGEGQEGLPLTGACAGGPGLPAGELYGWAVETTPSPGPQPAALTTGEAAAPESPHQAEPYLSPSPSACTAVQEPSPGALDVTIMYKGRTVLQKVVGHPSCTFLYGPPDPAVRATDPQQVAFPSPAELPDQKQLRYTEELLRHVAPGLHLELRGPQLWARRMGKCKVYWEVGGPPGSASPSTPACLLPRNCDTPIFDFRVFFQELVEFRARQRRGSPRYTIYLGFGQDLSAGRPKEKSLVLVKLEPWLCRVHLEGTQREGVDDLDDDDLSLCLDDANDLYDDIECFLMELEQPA
GACGGTACCGGGACTGGGGACGTGCTA: -0.575 z-score
GACGGTATCGGTCTCGGGTCGTGCTAG: 0.499 z-score
CTAGTTGTACTTTCTATCTCTGTGCTA: 4.14 z-score
GACGGACTGGGGTTTCGGGGCGTGCTA: 0.0198 z-score
TTAAATTCCAGTTTCGATTAGTGCTAG: 6.34 z-score
GACGGTGTCGGTTTCGGGACGTGCTAG: 2.42 z-score
GACGATAGCAGTATCGAGACGTGCTAG: 0.0104 z-score
GACGGTTTCCTTATCATGACGTGCTAG: 2.48 z-score
GACGATTTCATTATCGAGACGTGCTAG: 1.22 z-score
TCCACTTTCTTAATGCTTCTGTGCTAG: 3.89 z-score
TTAGATCTCAGTATCGATGAGTGCTAG: -0.139 z-score
GACGATTGCAGTCTCGAGACGTGCTAG: 0.2 z-score
TTAGGAATGGACTATCGGTTAGTGCTA: -0.467 z-score
GACGGTATCGGTTTCGGGGCGTGCTAG: 3.35 z-score
GACGATTCCAGTTTCGAAACGTGCTAG: 4.12 z-score
TCATAACTCATTTTCGTACTGTGCTAG: 3.51 z-score
TTTTTTTTTTTTTTTTACTTGTGCTAG: 2.06 z-score
TTAGGTTTCGACTTTCTGTTAGTGCTA: 7.17 z-score
TTAGATTGCGGGTTTCGATTAGTGCTA: 3.05 z-score

For quick reference, copied from above (set 1):
2'F-ANA at 2 3 4 5 6 7 10 12 13: 52.7 a.u.
2'F-ANA at 2 3 4 5 8 9 10 15: 81.3 a.u.
2'F-ANA at 3 4 9 10 11: 246 a.u.
2'F-ANA at 1 2 4 5 6 7 9 11 12 13 14 15: 51.5 a.u.
2'F-ANA at 1 5 6 8 9 14 15: 49.4 a.u.
2'F-ANA at 1 4 7 8 9 10 11 14 15: 49.9 a.u.
2'F-ANA at 1 4 5 8 9 10 11 13: 68.3 a.u.
2'F-ANA at 1 2 4 5 11 12 13 15: 69.3 a.u.
2'F-ANA at 6 9 11 12 13 14 15: 168 a.u.
2'F-ANA at 3 5 6 7 10 11 12 14: 47.9 a.u.
2'F-ANA at 1 2 8 9 10 11 12 15: 64.7 a.u.
2'F-ANA at 1 2 3 4 5 6 9 10 11: 67.2 a.u.
2'F-ANA at 3 4 8 9 10 11 15: 259 a.u.
2'F-ANA at 3 6 7 8 9 11 15: 705 a.u.
2'F-ANA at 1 3 6 7 8 9 11 13 15: 212 a.u.
